Results gathered from unrelated publications.
Lines come from different studies, so protocols differ.

SMILES	tested on	test	system	setting	quantity	result
Cn1nc(NS(C)(=O)=O)c2c(Cl)ccc(-n3c([C@H](Cc4cc(F)cc(F)c4)NC(=O)Cn4nc(C(F)F)c5c4C(F)(F)[C@@H]4C[C@H]54)nc4nc(OCCC(F)(F)F)ccc4c3=O)c21	–	measured: total cholesterol grade 1 increase	human	300 mg once daily, powder in bottle	patients with laboratory abnormality	38%
Cc1cn([C@H]2O[C@@H](CO[P@@](=O)(N[C@@H](C)C(=O)OC(C)C)Oc3ccccc3)[C@H](O)[C@H]2F)c(=O)[nH]c1=O	–	measured: grade 1/2	human	50 mg	patients with creatine kinase elevation	0%
C[C@]1(O)C[C@@](N)(c2ccc(-c3nc4n(c3-c3ccccc3)COc3ccncc3-4)cc2)C1	–	–	human, advanced or metastatic solid tumours	16 mg once daily, phase I dose escalation	patients with Pruritus TEAE	0%
N[C@@H]1c2ccccc2OC12CCN(c1cnc3c(N4CCCc5ncccc54)n[nH]c3n1)CC2	–	measured: pneumonia	human advanced or metastatic solid tumours	oral, dose not given, phase Ia	patients with serious adverse event	3.6%
C=CCNc1c(O)cc2c(O)c1C[C@@H](C)C[C@H](OC)[C@H](O)[C@@H](C)/C=C(\C)[C@H](OC(N)=O)[C@@H](OC)/C=C\C=C(/C)C(=O)N2	–	–	human unresectable metastatic GIST or sarcoma	intravenous, dose not given, treatment-emergent, all doses	patients with infusion site pain	26%
O=C1Nc2cc3[nH]nc(-c4ccncc4)c3cc2CN1Cc1ccccc1	–	CTCAE v4.03	human, relapsed or refractory advanced solid tumours	intravenous, 4.8 mg/kg	patients with QTc prolongation	0%
CN(C)C(=O)c1cc2cnc(Nc3ccc(N4CCNCC4)cn3)nc2n1C1CCCC1	–	measured: QT interval prolongation	human, HR+/HER2− advanced breast cancer	oral, dose not given, grade 3, CTCAE v4.03	patients with adverse event	1.8%
CCCS(=O)(=O)Nc1ccc(F)c(C(=O)c2c[nH]c3ncc(-c4ccc(Cl)cc4)cc23)c1F	human coronavirus OC43	virus-induced cell killing	MRC-5	maximum over 10 doses	maximum inhibition	0%
COc1ncnn2ccc(-c3cnc4nc(C)n(Cc5nnc([C@@H](C)F)o5)c4c3)c12	–	–	human	oral, dose not given, grade 5	patients with stomatitis	0%
N[C@H](C(=O)O)[C@@H]1CC(Cl)=NO1	human coronavirus OC43	virus-induced cell killing	MRC-5	screen	maximum inhibition	10.9%
COc1ccc(-c2c(-c3ccc(C#N)c(F)c3)nc(N3CCC(N)CC3)n(C)c2=O)cc1F	–	measured: weight decreased	human patients	oral, 60 mg, dose expansion	patients with serious TEAE	0%
CNC(=O)c1cc(Oc2ccc(NC(=O)Nc3cc(C(C)(C)C)nn3-c3ccc4ncccc4c3)c(F)c2)ccn1	–	–	human, trial	oral, 150 mg twice daily, starting dose	patients with related serious Cardiomyopathy AE	3%
C=CC(=O)Nc1cc(Nc2nccc(Nc3cc(Cl)c(F)cc3C(C)(C)O)n2)c(OC)cc1N1CC[C@@H](N(C)C)C1	–	–	human patients	oral, 50 mg, treatment-emergent adverse events	patients with AST increased	16.7%
C[C@@H]1OC(=O)NN=C1c1ccc(-c2ccc(F)cc2)c(C(F)(F)F)c1	–	phase I trial, measured: Cough all grades	human patients	5 mg loading then 0.25 mg daily	patients with adverse event	0%
Cn1cncc1-c1c(F)cncc1NC(=O)c1c(N)nn2cc(F)cnc12	–	–	human patients	oral, dose not given, all doses	patients grade ≥3 Anemia	36%
